Measured values of several laboratories.
A part holds a random share of what one study measured. Changes are numbered by the printed parent chain.

Study 1
Target: Interferon regulatory factor 5, full length, phosphomimetic (IRF5, Homo sapiens, UniProt Q13568-2, residues 1-514, K96S/S451D/S453D/S456D/S462D)
Method: protein-binding microarray
Molecule type: double-stranded DNA, one strand shown
Matrix: in vitro
Concentration: 250 nM
Setting: 60-bp whole probe
Added: salmon DNA 0.4 mg/ml
Baseline: random background probes
Reading: higher = stronger binding
Shared flanks, not repeated: GCCTAGCAC … GTCTTGATTCGCTTGACGCTGCTG
For `TTAGGTAACGACTTTCGGTTAGTGCTA`, the log fluorescence was 10 z-score.
The log fluorescence of `CTCTACATGTGTTTAAAAAGGTGCTAG` is reported as -0.00756 z-score.
`TCAGCTTACAATATAAAACTGTGCTAG` has a log fluorescence of 0.717 z-score.
`TTTGCTTTAGTCATTCACTGAGTGCTA` has a log fluorescence of 0.602 z-score.
With `GACTGTATCGACTATCGGGACGTGCTA` the log fluorescence was 4.14 z-score.

Study 2
Target: CCNB1, cyclin fold, Cln2 fusion (human)
Method: yeast growth competition, sequencing
Matrix: yeast
Setting: weak parent motif
Baseline: not given
Reading: higher = stronger binding
Parent: CDC25A docking peptide (human); PPHRRRLLFACSP
`PPHRRFLLFACSP [R6F]`: “normalised enrichment score” 0.211.
For `PPHRRRLLRACSP [F9R]`, “normalised enrichment score” read 1.32.
For `PPHRRRLLFECSP [A10E]`, “normalised enrichment score” read 0.335.
Under “normalised enrichment score”, `PPHRRRLFFACSP [L8F]` is recorded as 0.23.

Study 3
Target: RNA binding protein fox-1 homolog 2, RRM domain, GST-SBP tag (RBFOX2, Homo sapiens, UniProt O43251-10, residues 100-194)
Method: RNA Bind-n-Seq
Molecule type: RNA
Matrix: in vitro
Concentration: 365 nM
Setting: natural RNA segment, single round, ends assumed
Baseline: no-protein control
Reading: higher = stronger binding
Residues (chain): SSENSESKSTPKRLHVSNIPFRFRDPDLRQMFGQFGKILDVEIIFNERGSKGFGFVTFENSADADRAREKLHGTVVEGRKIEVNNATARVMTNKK
`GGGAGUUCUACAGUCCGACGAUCUGUCAAACACAGCCAUUAUAAUUAUGUAAAUUUGCAAAUUAUGUUAAAAACAAGGACAAUAAAUAUUCAAAAUGCAUCCCUAAUUACUACAUUUGACCACGAUCUGUGCUUGGAAUUCUCGGGUGCCAA`: “RBNS enrichment (R)” 0.426.
Under “RBNS enrichment (R)”, `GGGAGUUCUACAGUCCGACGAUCGAUAUUGUUAGGUGGAAUAACUUAGAAUAAAAUGAGAAUUCUUGAGUUAUAUUUUGUACUAUGGUUUAGGGCUAUGACUAAUAUUUCAGGCCAUUUCCAGUGAAAGAAACUGGAAUUCUCGGGUGCCAA` is recorded as 0.641.
`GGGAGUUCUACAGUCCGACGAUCCCACCAUCUGUAUCAGCGCAUGGGGAGUGUGCAUUCUGAGGUCUAACCCGGGGUGCCAGGAACACACACAUCCUCCAUCCCAGCAUAGAGAAUGGGGACUCCCUGAGUAAUGGAAUUCUCGGGUGCCAA` — result for “RBNS enrichment (R)”: 0.802.
`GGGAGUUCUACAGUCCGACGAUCCAAAAAAACAAUGUUAUUACUUGUAAAUUAAAAUUUAAGAGCCAUUAGCUAGAUAAACCAUGUGCUAUUCCCACCCUUUACCUGCAGUAAAUUUUAAACAAUAAUUUUAAUGGAAUUCUCGGGUGCCAA`: “RBNS enrichment (R)” 0.604.
For `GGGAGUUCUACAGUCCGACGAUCCAUCCUACUCUCAAGGAUGAAGUCUCCAGCCUGUGGAGCCAGCCUAGCUCCUAACUGUCAGGCUGACGGACACCUCCCAGGUCUUGCACCCUCAUGCCAACUCUGCCCCAUGGAAUUCUCGGGUGCCAA`, “RBNS enrichment (R)” read 0.595.
`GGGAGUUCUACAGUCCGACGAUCAGAAAGUAUUGAGCCAUGACUUUUUAAAAAUAAUUUAUAUUUAUACUGGUCAAUAAUGAAGGUUUUUUUUUAUUAUUAAAGAACUUGAUUUUAUAAUUCUGCAGCAGAUGUGGAAUUCUCGGGUGCCAA`: “RBNS enrichment (R)” 1.08.
`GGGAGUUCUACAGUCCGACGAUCUCUGUCGGUGAGGCCUUCUCUAAUGCAGUAUUCAUGAUGUUCUCAUUCAUGUUCUCAUUCAUGAUGUUCAUGAUCUUGAGAUCUAUCUGCUGCAGUUUUUUGACUCCUGUUGGAAUUCUCGGGUGCCAA`: “RBNS enrichment (R)” 0.198.

Single results of other studies
`PhoQ, residues 284 288 289 292 302 303 TVTVVA` has a fold induction of 1.65 (PhoP, residues 12 14 15 18 19 AWHSL (Escherichia coli, UniProt P23836); Sort-seq, refers to: YFP reporter; E. coli; PhoQ-PhoP variant library, added: 10 µM Mg2+; baseline: high Mg2+ state, higher = stronger signaling).

Some of these lines once more (study 1):
For `TTAGGTAACGACTTTCGGTTAGTGCTA`, the log fluorescence was 10 z-score.
The log fluorescence of `CTCTACATGTGTTTAAAAAGGTGCTAG` is reported as -0.00756 z-score.
